Results collected from several papers.
Numbered parts are unrelated; each lists some results of a single study.

Series 1 — technique: protein-binding microarray; molecule type: double-stranded DNA, one strand shown; medium: in vitro; tested at: 250 nM; notes: 60-bp whole probe; added: salmon DNA 0.4 mg/ml; relative to: random background probes; direction: higher = stronger binding; measurement: log fluorescence; shared flanks, not repeated: GCCTAGCAC … GTCTTGATTCGCTTGACGCTGCTG
Target: Interferon regulatory factor 5, full length, phosphomimetic (IRF5, Homo sapiens, UniProt Q13568-2, residues 1-514, K96S/S451D/S453D/S456D/S462D)
GACGATTTCAGAATCGAGACGTGCTAG: 0.601 z-score
CTCTTCTTGCATCTGGGTATGTGCTAG: 0.334 z-score
GACGATATCGAGTTTCGAGACGTGCTA: 5.17 z-score
GGCGAACTGAGACTGGAGACGTGCTAG: -0.545 z-score
ATTTGTCCCTATTTAAGAGAGTGCTAG: 0.378 z-score
GGAAGCAGTGAGAAGGTGGCGTGCTAG: -0.303 z-score
TTATGTGTAGGTCTTAAATAGTGCTAG: 0.0829 z-score
TCACACCTCTAGACTCTAACTGTGCTA: 0.396 z-score
TTAGATATCAGTTTCGATTTGTGCTAG: 9.62 z-score
TTAGGTTTCGACTTACGGTTAGTGCTA: 7.91 z-score
CACGGACTGGGTCTCGGGACGTGCTAG: -0.668 z-score
TCATTCCTCTCACCTCGGACTGTGCTA: 0.576 z-score
CTCCTGCAGCTGCCCTCCTGGTGCTAG: -0.598 z-score
TTAGGACTGGATTTTCGGTTAGTGCTA: 5.2 z-score
GACGGACTGGACTATCGGCACGTGCTA: 0.727 z-score
GACGGACTGGACACTGAGGACGTGCTA: -0.491 z-score
TTAGGACTGGGGACTAGGTTAGTGCTA: -0.494 z-score
TTAGATTTAGGGTTTCGATTAGTGCTA: 4.69 z-score
GACGATATCAGTCTCGAGGCGTGCTAG: 1.19 z-score
TCAACTTTGGTTTGTACACTGTGCTAG: 0.334 z-score
GACGATATCAGTTTCGAGTCGTGCTAG: 7.26 z-score
TTAGGTTTCGTGACTGGGTTAGTGCTA: 2.26 z-score
GACGGTTTCGGTTCCGGGGCGTGCTAG: 9.9 z-score
GACGGTTTCCTACTGCTTACGTGCTAG: 0.544 z-score
GACGGTTCCGGTTACGGGACGTGCTAG: 1.1 z-score

Series 2 — technique: universal PBM; molecule type: double-stranded DNA, one strand shown; medium: in vitro; tested at: 600 nM; direction: higher = stronger binding; measurement: E-score
Target: Sal-like protein 4, full length isoform A (SALL4, Homo sapiens, UniProt Q9UJQ4, residues 1-1053)
Sequence of UniProt Q9UJQ4 (whole entry, looked up): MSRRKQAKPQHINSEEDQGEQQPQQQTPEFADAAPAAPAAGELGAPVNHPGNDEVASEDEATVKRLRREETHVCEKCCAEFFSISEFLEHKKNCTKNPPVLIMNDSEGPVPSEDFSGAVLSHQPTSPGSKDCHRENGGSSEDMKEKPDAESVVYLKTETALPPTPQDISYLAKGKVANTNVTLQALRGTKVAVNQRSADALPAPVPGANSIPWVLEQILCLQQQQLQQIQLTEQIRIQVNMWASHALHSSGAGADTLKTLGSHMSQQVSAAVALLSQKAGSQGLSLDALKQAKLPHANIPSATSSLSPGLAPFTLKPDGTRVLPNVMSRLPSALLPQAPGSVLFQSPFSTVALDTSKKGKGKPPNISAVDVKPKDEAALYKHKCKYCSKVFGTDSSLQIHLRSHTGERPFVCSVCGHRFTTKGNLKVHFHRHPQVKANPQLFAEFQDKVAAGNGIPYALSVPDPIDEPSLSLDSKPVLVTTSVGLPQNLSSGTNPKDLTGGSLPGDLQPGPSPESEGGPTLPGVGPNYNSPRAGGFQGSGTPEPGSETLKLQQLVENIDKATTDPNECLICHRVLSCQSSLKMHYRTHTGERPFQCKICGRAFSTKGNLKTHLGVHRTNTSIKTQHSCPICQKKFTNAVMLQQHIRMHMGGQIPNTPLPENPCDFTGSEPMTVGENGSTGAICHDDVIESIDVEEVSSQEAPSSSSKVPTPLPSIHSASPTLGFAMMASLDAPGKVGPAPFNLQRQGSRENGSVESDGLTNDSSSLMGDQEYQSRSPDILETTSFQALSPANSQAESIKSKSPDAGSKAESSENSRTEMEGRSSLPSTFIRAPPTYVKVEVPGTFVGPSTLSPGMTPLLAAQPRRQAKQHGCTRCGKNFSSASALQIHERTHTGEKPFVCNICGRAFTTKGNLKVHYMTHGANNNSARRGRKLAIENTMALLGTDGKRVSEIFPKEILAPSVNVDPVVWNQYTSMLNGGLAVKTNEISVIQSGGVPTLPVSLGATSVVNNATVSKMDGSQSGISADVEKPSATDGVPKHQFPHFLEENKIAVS
Notes: 8-mer, flanks averaged, mean of replicates
CTTTGTCC: 0.00668
GCAATGAA: 0.0867
AAAATGGA: 0.226
CAGGCCAA: -0.238
CGACTCAG: -0.122
ACAAGCGC: -0.142
CAAGGAAG: -0.0931
GGGACTTA: 0.0195
AAACTTTG: 0.123
ATCACTCG: 0.0154
CGACAATC: -0.134
AAATAAGC: 0.21
GGTTGACA: -0.0622
AATCCGAA: 0.0959
GAAACAAC: 0.00446
CTCGTGCC: -0.347
AGAACACA: -0.0621
TATCGGCA: 0.0335
CCCAGAAC: -0.126
CTCACAGC: -0.205

Series 3 — technique: RNA Bind-n-Seq; molecule type: RNA; medium: in vitro; tested at: 365 nM; relative to: no-protein control; direction: higher = stronger binding; measurement: RBNS enrichment (R)
Target: RNA binding protein fox-1 homolog 2, RRM domain, GST-SBP tag (RBFOX2, Homo sapiens, UniProt O43251-10, residues 100-194)
Notes: natural RNA segment, single round, ends assumed
Shared flanks, not repeated: GGGAGUUCUACAGUCCGACGAUC … UGGAAUUCUCGGGUGCCAA
Construct (chain): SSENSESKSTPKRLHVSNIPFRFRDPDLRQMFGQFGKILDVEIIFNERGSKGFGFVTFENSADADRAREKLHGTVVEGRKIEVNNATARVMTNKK
GUCUUCCUGGUGAGUUCUACUCAUGGUCGUUCUCAGGAAAACUGUGUUCCCUUUGUGUGUACGUUUCUCACCCCUUAACCACUUCAGUGUCAAAAAAGUUCCCAUUGUGU: 0.998
GGACUCUGCCUCGGGAUCUGAUGAUAAAGGAGGGAAUUCCCACCUCGUCACAGCUCCAGUCUCUCACAUAGUCCUUGGAUUCUGUGCCAUCUGAGUAACUGCUCUUGGUG: 0.207
GUAGAUAACAGACAAGUCCUAAGCAGUGUUCCACUAAGGGUGGUUCCAGGCCUGCCUGCCGUGGAGUUGACUGGGGGAAUUUUACAGUUUUGCGAUCCUAGGAUGCGUCC: 1.53
CUCCCGAGUGCUGGAGCUAAUGGGGAUCACCACCACAGCCCAGCUCAAGUUCUUUCUCUUGGUUAGUCCAGCACACCACUUUGUUCUCUUGGGCCGUAUCUGCUGUGUCA: 0.562
UAGACUUGGACAUCUCUCUGGCUUCUGAAGAGCCUGAAGCUGGCCUGGACCAUUCCUGUCCCUUUGUUACCAUACUGUCUCUGGAGUGAUGGUGUCCUUCCCUGCCCCAC: 0.383
UGUUUUUAAUGUAAAGGUUAAACUUGAAAAGAAAUUCUUAAUCACGGUGCCAAAAUUCAUUUUCUAACACCAUGUGUUAGAAAAUUAUAAAAAAUAAAAUAAUUUUAGAA: 0.911
UCUUUGGUAAUGAAACAAUAACACUCAAUGAAGGAUGUAUUAAAAUUUUUGACUUAAUUUUGAAAUCGUAUAUAUGAGCUAUACUUUAACAUUAUGAGAGAAAAGCAUAA: 0.434
AGAUCAGCAUGUGCUAUACUCCCUGCAAGAAAUAUACUGACAUGAACAGGCAGUUCUUGGAGAAGAAAGAGCAUUUCUUUAAGUACCUGGGGAAUACAGCUCUCAGUGAU: 1.76
UUUUGGCUCUGAAGAAGCAAACAUGACUAGAGACGCACCUUGCUGCAGUGUCCAGAAGCGGCCUGUGCGUUCCCUUCAGUACUGCAGCGCCACCCAGUGGAAGGACACUC: 0.376
AGAUGUGGGAAGGAUAUAGCUCGGGGCUUAGUGAGGAAGAUGGACACCCAUGGUUCAAAGUCUGGUGUUGACCCUAGAUAGCUAUGUGACUGUGGGUGGACCAUCUCCCC: 0.74
UCACUCCCUGAUGACGUGUAGCUGCCCGCUCACUCCAUGUGAAGAAGAGCUCCAGCAGGCUACACAGAGAUGCUCAGCCCUCAGCGCUUGCAGGCUUCCCGUCACGUGUC: 0.356
UCUCUGGUGGGCAGAGAGGGAUGGGGUCCCUGAGCCAGGCCCCACCCAUCACAGCAUUCCCAGGUCCUGGUACCCAGCCCUCAGUUGUCAUUUGGUUCAGAAUCAGUUCC: 0.513

Series 4 — technique: RNA Bind-n-Seq; molecule type: RNA; medium: in vitro; tested at: 200 nM; notes: whole 134-nt RNA, ends assumed; added: 150 mM LiCl; relative to: input library; direction: higher = stronger binding; measurement: log2 enrichment; library: 7-deaza-guanosine replaces G
Target: Ras GTPase-activating protein-binding protein 1, full length (G3BP1, Homo sapiens, UniProt Q13283)
Sequence of UniProt Q13283 (whole entry, looked up): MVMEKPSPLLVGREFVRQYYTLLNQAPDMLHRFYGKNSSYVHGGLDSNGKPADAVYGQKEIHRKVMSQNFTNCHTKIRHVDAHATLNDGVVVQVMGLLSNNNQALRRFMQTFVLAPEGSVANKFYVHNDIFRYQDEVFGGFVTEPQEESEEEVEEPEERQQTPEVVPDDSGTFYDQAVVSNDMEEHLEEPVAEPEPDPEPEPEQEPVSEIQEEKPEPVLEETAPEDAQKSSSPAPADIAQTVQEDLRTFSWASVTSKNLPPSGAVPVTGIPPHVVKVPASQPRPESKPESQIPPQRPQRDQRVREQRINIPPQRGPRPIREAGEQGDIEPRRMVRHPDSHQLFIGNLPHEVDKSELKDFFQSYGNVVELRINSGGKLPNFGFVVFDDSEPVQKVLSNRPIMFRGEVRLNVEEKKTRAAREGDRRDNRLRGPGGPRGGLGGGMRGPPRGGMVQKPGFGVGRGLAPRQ
Shared flanks, not repeated: GGGAGUUCUACAGUCCGACGAUC … UGGAAUUCUCGGGUGUCAAGG
AAGUCCUGUGCUACACAUCGUAUGUACCGAAUCAAAUUUAAAUUUAAACCCCCAAAAAAGUAUUAUGUUACGCCGUUCGGAUCUGCACUU: 1.33
CCUGUGCUACACAUCGUAUGUACCGAAUCGGGCCCCCCCGGGCCCCCCCGGGCCCCCCCGGAAAGUAUUAUGUUACGCCGUUCGGAUCUG: -0.119
UGGGAGGUGGAUUUUGUUUAUUUUUUUAGCUCAUUUCCAGGGGUGGGAAUUUUUUUUUAAUAUGUGUCAGGAAUAAAGUUGUUUUUGAAA: 0.0144
UGGCCCUGGUGGCAUGCGGGGAGGAAGAGGUGGCCCCAUGGAUCGUGGUGGUCCCGGUGGAAUGUUCAGAGGUGGCCGUGGUGGAGACAG: 0.14
CCUCAAGUCCUGUGCUACACAUCGUAUGUACCGAAUCGGGGAGGAGGGGAGGAAAGUAUUAUGUUACGCCGUUCGGAUCUGCACUUCCAG: 0.49
GCAGGAAGUAAAAACAAAUGGAAAUGCUUCGGAUAGUGGCAGGGGUGGGGGUUGCUAAGGAAAGGGUGGGAGGGGAGUGGGUAAAGAGUU: -0.498
UCCUGUGCUACACAUCGUAUGUACCGAAUCGGUUUUUUUGGUUUUUUUGGAAAAAAAGGAAAGUAUUAUGUUACGCCGUUCGGAUCUGCA: -1.5
GUCCUGUGCUACACAUCGUAUGUACCGAAUCGGGUUUUUUUGGGUUUUUGGGAAAGGGAAAGUAUUAUGUUACGCCGUUCGGAUCUGCAC: -0.332
AGUGGGUUUGUUGAAGCAGUUGCUGGUGCAACAGCUAGGUUUGACUGAGAAGAGCGUUCAGGAAGACUGGCAACAUUUCCCAAGAUACAG: -2.69
AGUCCUGUGCUACACAUCGUAUGUACCGAAUCGGUUUUUGGGUUUUUGGGUUUUUGGGAAAGUAUUAUGUUACGCCGUUCGGAUCUGCAC: -0.118
UAACUUUAGAGGAGGAUCUGAUGGAUAUGGCAGUGGACGGGGAUUUGGGGAUGGCUAUAAUGGGUAUGGAGGAGGACCUGGAGGUGGCAA: -0.517

Excerpt of the above (series 1):
TCATTCCTCTCACCTCGGACTGTGCTA: 0.576 z-score
CTCCTGCAGCTGCCCTCCTGGTGCTAG: -0.598 z-score
TTAGGACTGGATTTTCGGTTAGTGCTA: 5.2 z-score
GACGGACTGGACTATCGGCACGTGCTA: 0.727 z-score
GACGGACTGGACACTGAGGACGTGCTA: -0.491 z-score
TTAGGACTGGGGACTAGGTTAGTGCTA: -0.494 z-score
TTAGATTTAGGGTTTCGATTAGTGCTA: 4.69 z-score
GACGATATCAGTCTCGAGGCGTGCTAG: 1.19 z-score
TCAACTTTGGTTTGTACACTGTGCTAG: 0.334 z-score
GACGATATCAGTTTCGAGTCGTGCTAG: 7.26 z-score
TTAGGTTTCGTGACTGGGTTAGTGCTA: 2.26 z-score
